Experimental data of several laboratories.
Lines come from different studies, so protocols differ. Numbers after ± are the reported error.

O=C1C=CC(=O)C(c2cc(Cl)ccc2Cl)=C1  tumour growth inhibition (C57BL/6 mouse B16 melanoma; po, 3 mg/kg daily, 5 days/week): ~83%
CC[C@H](C)[C@H](NC(=O)[C@@H](NC(=O)[C@H](CC(=O)O)NC(C)=O)[C@@H](C)O)C(=O)N[C@@H](CCCNC(=N)N)C(=O)N[C@@H](CC(C)C)C(=O)N[C@@H](CC(C)C)C(=O)N[C@@H](Cc1ccccc1)C(=O)N[C@@H](CCC(N)=O)C(=O)N[C@@H](CC(C)C)C(=O)N[C@@H](CCSC)C(=O)N[C@@H](CCCNC(=N)N)C(=O)N1CCC[C@H]1C(=O)N1CCC[C@H]1C(=O)N[C@@H](CC(N)=O)C(=O)N[C@@H](CCSC)C(=O)N[C@H](C(=O)N1CCC[C@H]1C(=O)N[C@@H](C)C(=O)N[C@H](C(=O)N[C@@H](CC(N)=O)C(=O)N[C@@H](C)C(N)=O)C(C)C)[C@@H](C)O  α4β7− CCR9+ cells (item: HA-02 tetramer; antigen-experienced tetramer+ CD4 T cells, healthy adults, HLA-DRB1*0101; dose not given): 6.67%
O=C(O)COc1c2c(c(OCC(=O)O)c3c1C1CC3c3cc4c(cc31)C1CC4c3ccccc31)C1CC2c2cc3c(cc21)C1CC3c2ccccc21  maximal dye leakage (liposomes; 150 µM, 30 min): 78%
Cc1cc(Nc2nc(C[C@@]3(C(=O)O)CCN(Cc4cccc(Cl)c4F)[C@H](C)C3)cc(C)c2F)[nH]n1  tumour growth inhibition (mouse, NCI-H446 xenograft; oral, 10 mg/kg once daily, monotherapy): 78%
COc1ccc([N+](=O)[O-])cc1NC(=O)CCC(=O)[O][Zn][O]C(=O)CCC(=O)Nc1cc([N+](=O)[O-])ccc1OC.c1ccncc1  DPPH scavenging (antioxidant activity; 15.62 µg/mL): 61.6 ± 0.78%
CC(=O)N[C@@H](Cc1c[nH]c2ccccc12)C(=O)NCC(=O)N[C@@H](C)C(=O)N[C@H]1CSCC(=O)Nc2ccc(cc2)N=Nc2ccc(c(S(=O)(=O)O)c2)-c2ccc(cc2S(=O)(=O)O)N=Nc2ccc(cc2)NC(=O)CSC[C@@H](C(=O)N[C@@H](CCCNC(=N)N)C(=O)N[C@@H](CCC(=O)O)C(=O)N[C@@H](C)C(=O)N[C@@H](CCC(N)=O)C(N)=O)NC(=O)[C@H](C)NC(=O)[C@H](C)NC(=O)[C@H](CCC(=O)O)NC(=O)[C@H](CCCNC(=N)N)NC(=O)[C@H](C)NC(=O)[C@H](C)NC(=O)[C@H](C)NC(=O)[C@H](CCC(=O)O)NC(=O)[C@H](CCCNC(=N)N)NC(=O)[C@H](C)NC(=O)[C@H](C)NC(=O)[C@H](C)NC(=O)[C@H](CCC(=O)O)NC(=O)[C@H](CCCNC(=N)N)NC(=O)[C@H](C)NC(=O)[C@H](C)NC(=O)[C@H](C)NC(=O)[C@H](CCC(=O)O)NC1=O  thermal relaxation half-life (cis-to-trans reversion, UV-Vis absorbance; 10 mM phosphate buffer; pH 7.0, 20 °C, together with: 365 nm irradiation): 29.1 ± 1.2 min
COc1ccc2c(c1)C(C)(C)C(/C=C/C1=C(Oc3ccc(C(=O)NCCCCOc4cc(CN(Cc5ccccn5)Cc5ccccn5)cc(CN(Cc5ccccn5)Cc5ccccn5)c4)cc3)C(=C/C=C3/N(CCCCS(=O)(=O)[O-])c4ccc(OC)cc4C3(C)C)CCC1)=[N+]2CCCCS(=O)(=O)[O-].O=[N+]([O-])O.O=[N+]([O-])[O-].O=[N+]([O-])[O-].O=[N+]([O-])[O-].[Zn+2].[Zn+2]  signal-to-background ratio (photoacoustic imaging; BALB/c mouse S. aureus myositis, infected muscle; intravenous, dose not given, 12 h; relative to: post- over pre-injection): 2.17 ± 0.05
CCCCCCCCCCCCCCCC(=O)N[C@@H](CCC(=O)NCCOCCOCCC(=O)NCCOCCOCCC(=O)NCCCC[C@H](NC(=O)[C@H](CC(=O)O)NC(=O)[C@H](CC(C)C)NC(=O)[C@H](Cc1ccc(O)cc1)NC(=O)[C@H](CCCCN)NC(=O)[C@H](CO)NC(=O)[C@H](Cc1ccc(O)cc1)NC(=O)[C@H](CC(=O)O)NC(=O)[C@H](CO)NC(=O)[C@@H](NC(=O)[C@H](Cc1ccccc1)NC(=O)[C@@H](NC(=O)CNC(=O)[C@H](CCC(N)=O)NC(=O)[C@@H](CO)NC(=O)[C@@H](N)Cc1c[nH]cn1)[C@@H](C)O)[C@@H](C)O)C(=O)N[C@@H](CCCNC(=N)N)C(=O)N[C@@H](CCCNC(=N)N)C(=O)N[C@@H](C)C(=O)N[C@@H](CCC(N)=O)C(=O)N[C@@H](CC(=O)O)C(=O)N[C@@H](Cc1ccccc1)C(=O)N[C@H](C(=O)N[C@@H](CCC(N)=O)C(=O)N[C@@H](Cc1c[nH]c2ccccc12)C(=O)N[C@@H](CC(C)C)C(=O)N[C@@H](CC(C)C)C(=O)N[C@@H](CC(N)=O)C(=O)N[C@H](C(=O)NCC(=O)NCC(=O)N1CCC[C@H]1C(=O)N[C@@H](CO)C(=O)N[C@@H](CO)C(=O)NCC(=O)N[C@@H](C)C(=O)N1CCC[C@H]1C(=O)N1CCC[C@H]1C(=O)N1CCC[C@H]1C(=O)N[C@@H](CO)C(N)=O)[C@@H](C)O)C(C)C)C(=O)O  α-SMA expression (Sprague-Dawley rat bile duct ligation, liver; dose not given): decreased
CC(=O)N1CCC(NC(=O)C(N)Cc2c(C)cc(O)cc2C)c2cc(CN3CCc4ccccc4C3)ccc21 (centres unmarked)  duration of antinociception (warm water tail withdrawal; C57BL/6 mice; intraperitoneal, 10 mg/kg cumulative): 200 min
C[C@H](NC(=O)[C@H](CCC(N)=O)NC(=O)[C@H](CCCCN)NC(=O)[C@H](C)NC(=O)[C@@H]1CCCN1C(=O)[C@H](C)NC(=O)[C@H](CCCCN)NC(=O)[C@H](CCC(N)=O)NC(=O)[C@H](C)NC(=O)[C@H](CCCCN)NC(=O)[C@H](CCC(N)=O)NC(=O)[C@@H]1CCCN1C(=O)[C@H](CCC(N)=O)NC(=O)[C@H](CCCCN)NC(=O)[C@H](C)NC(=O)[C@H](CCC(N)=O)NC(=O)[C@H](CCCCN)NC(=O)[C@H](C)NC(=O)[C@@H]1CCCN1C(=O)[C@H](C)NC(=O)[C@H](CCCCN)NC(=O)[C@H](CCC(N)=O)NC(=O)[C@H](C)NC(=O)[C@H](CCCCN)NC(=O)[C@H](CO)NC(=O)[C@H](Cc1ccc(O)cc1)NC(=O)CNC(=O)CNC(=O)CN)C(=O)N[C@@H](CCCCN)C(=O)N[C@@H](CCC(N)=O)C(=O)O  binding ratio (Aβ(1-40) fibrils; 1 h, room temperature; relative to: 1 M NaCl over PBS): 0.01
COc1ccc(CCN2CCC[C@H](CN3CCc4cc(OC)c(OC)cc4CC3=O)C2)cc1OC  burst firing (VTA dopamine neurons; CSDS-susceptible male mice; intraperitoneal, 20 mg/kg; relative to: baseline): decreased
O=C(O)/C=C/c1ccc(O)cc1  DPPH radical scavenging (62.5 µg/mL): 51.8 ± 1.2%
CCN(CCCCOc1ccc(CCC(=O)N2CCC(Cc3ccccc3)CC2)cc1OC)Cc1ccccc1  protein level (decrease, ELISA, item: IL-6; APP/PS1 transgenic mice, cerebral cortex; dose not given): decreased
C[C@@H](NC(=O)[C@@H](CCC(N)=O)NC(=O)[C@@H](C)NC(=O)[C@@H](CCCCN)NC(=O)[C@@H](CCC(N)=O)NC(=O)[C@@H](C)NC(=O)[C@@H](CCCCN)NC(=O)[C@@H](CCC(N)=O)NC(=O)[C@@H](C)NC(=O)[C@@H](CCC(N)=O)NC(=O)[C@@H](CCCCN)NC(=O)[C@@H](C)NC(=O)[C@@H](CCC(N)=O)NC(=O)[C@@H](CCCCN)NC(=O)[C@@H](C)NC(=O)[C@@H](CCC(N)=O)NC(=O)[C@@H](C)NC(=O)[C@@H](CCCCN)NC(=O)[C@@H](CCC(N)=O)NC(=O)[C@@H](C)NC(=O)[C@@H](CCCCN)NC(=O)[C@@H](CO)NC(=O)[C@@H](Cc1ccc(O)cc1)NC(=O)CNC(=O)CNC(=O)CN)C(=O)N[C@H](CCCCN)C(=O)N[C@H](CCC(N)=O)C(=O)N[C@H](C)C(=O)N[C@H](CCCCN)C(=O)N[C@H](CCC(N)=O)C(=O)O  binding ratio (Aβ(1-40) fibrils; 1 h, room temperature; relative to: 1 M NaCl over PBS): 0.29
Cc1ccc(/C=C/C(=O)O)cc1-c1cc2c(cc1C)C(C)(C)CCC2(C)C  log2 fold change (RNA sequencing, item: Aurkb mRNA; rat, brain; dose not given, 24 h, single dose; relative to: vehicle): 0.43
NCCCC[C@H](NC(=O)CNC(=O)CNC(=O)[C@H](CCCCN)NC(=O)CNC(=O)CNC(=O)CNC(=O)[C@H](CCCCN)NC(=O)CNC(=O)CNC(=O)[C@H](CCCCN)NC(=O)CNC(=O)CNC(=O)CNC(=O)[C@H](CCCCN)NC(=O)CNC(=O)CNC(=O)[C@H](CCCCN)NC(=O)CNC(=O)CNC(=O)CNC(=O)[C@H](CCCCN)NC(=O)CNC(=O)CNC(=O)[C@H](CCCCN)NC(=O)[C@H](CO)NC(=O)[C@H](Cc1ccc(O)cc1)NC(=O)CNC(=O)CNC(=O)CN)C(=O)NCC(=O)O  binding ratio (Aβ(1-40) fibrils; 1 h, room temperature; relative to: 1 M NaCl over PBS): 0.07
CC(C)C[C@H](NC(=O)[C@H](CC(N)=O)NC(=O)[C@@H](NC(=O)[C@H](Cc1ccccc1)NC(=O)[C@H](CC(C)C)NC(=O)[C@@H]1CCCN1C(=O)[C@H](C)NC(=O)[C@@H](N)Cc1ccccc1)[C@@H](C)O)C(=O)O  share of HSV-specific CD8 response (C57BL/6 mouse, HSV-1 infected, trigeminal ganglion; dose not given, 8 dpi; relative to: all HSV epitopes): 4.6%

For quick reference, copied from above:
COc1ccc2c(c1)C(C)(C)C(/C=C/C1=C(Oc3ccc(C(=O)NCCCCOc4cc(CN(Cc5ccccn5)Cc5ccccn5)cc(CN(Cc5ccccn5)Cc5ccccn5)c4)cc3)C(=C/C=C3/N(CCCCS(=O)(=O)[O-])c4ccc(OC)cc4C3(C)C)CCC1)=[N+]2CCCCS(=O)(=O)[O-].O=[N+]([O-])O.O=[N+]([O-])[O-].O=[N+]([O-])[O-].O=[N+]([O-])[O-].[Zn+2].[Zn+2]  signal-to-background ratio (photoacoustic imaging; BALB/c mouse S. aureus myositis, infected muscle; intravenous, dose not given, 12 h; relative to: post- over pre-injection): 2.17 ± 0.05
CC(C)C[C@H](NC(=O)[C@H](CC(N)=O)NC(=O)[C@@H](NC(=O)[C@H](Cc1ccccc1)NC(=O)[C@H](CC(C)C)NC(=O)[C@@H]1CCCN1C(=O)[C@H](C)NC(=O)[C@@H](N)Cc1ccccc1)[C@@H](C)O)C(=O)O  share of HSV-specific CD8 response (C57BL/6 mouse, HSV-1 infected, trigeminal ganglion; dose not given, 8 dpi; relative to: all HSV epitopes): 4.6%
NCCCC[C@H](NC(=O)CNC(=O)CNC(=O)[C@H](CCCCN)NC(=O)CNC(=O)CNC(=O)CNC(=O)[C@H](CCCCN)NC(=O)CNC(=O)CNC(=O)[C@H](CCCCN)NC(=O)CNC(=O)CNC(=O)CNC(=O)[C@H](CCCCN)NC(=O)CNC(=O)CNC(=O)[C@H](CCCCN)NC(=O)CNC(=O)CNC(=O)CNC(=O)[C@H](CCCCN)NC(=O)CNC(=O)CNC(=O)[C@H](CCCCN)NC(=O)[C@H](CO)NC(=O)[C@H](Cc1ccc(O)cc1)NC(=O)CNC(=O)CNC(=O)CN)C(=O)NCC(=O)O  binding ratio (Aβ(1-40) fibrils; 1 h, room temperature; relative to: 1 M NaCl over PBS): 0.07
